Published values of several laboratories.
Lines come from different studies, so protocols differ. ± gives the spread as reported.

`CN1C(=O)[C@@H](Cc2ccc(O)c(I)c2)NC(=O)CNC(=O)[C@H](Cc2ccc3ccccc3c2)NC(=O)[C@H](CCCNC(=N)N)NC(=O)[C@H]1CCCNC(=O)c1ccc(CNC(=O)CN2CCN(CC(=O)O)CCN(CC(=O)O)CCN(CC(=O)O)CC2)cc1` [lutetium-177 labelled] has a tissue uptake of 1.58 ± 0.33 %ID/g (refers to: 177Lu radioactivity; female CB-17 SCID mice, Daudi xenograft, spleen; intravenous, 0.16 nmol per mouse, 48 h).
With `CCCC[C@@H]1NC(=O)[C@@H](NC(=O)[C@H](CCC(=O)O)NC(=O)CNC(=O)CN2CCN(CC(=O)O)CCN(CC(=O)O)CCN(CC(=O)O)CC2)CCCCNC(=O)C[C@@H](C(N)=O)NC(=O)[C@H](C(C)C)NC(=O)[C@@H]2CCCN2C(=O)[C@H](CCCNC(=N)N)NC(=O)CNC(=O)[C@H](Cc2c[nH]c3ccccc23)NC(=O)[C@H](CCCNC(=N)N)NC(=O)[C@@H](Cc2ccccc2)NC(=O)[C@H](Cc2c[nH]cn2)NC(=O)[C@H](CCC(=O)O)NC1=O` [gallium-67 labelled] the tissue uptake was 0.1 ± 0.06 %ID/g (C57 mice with B16/F1 melanoma, lung; intravenous, 24 h).
For `CC(C)[C@H](NC(=O)[C@@H]1CCCN1C(=O)[C@H](CCCNC(=N)N)NC(=O)[C@H](CS)NC(=O)[C@H](Cc1c[nH]c2ccccc12)NC(=O)[C@H](CCCNC(=N)N)NC(=O)[C@@H](Cc1ccccc1)NC(=O)[C@H](Cc1c[nH]cn1)NC(=O)[C@H](CCC(=O)O)NC(=O)[C@H](CS)NC(=O)[C@H](CS)NC(=O)[C@@H]1CC(=O)N[C@@H](CCCNC(=N)N)C(=O)NCC(=O)N[C@@H](CC(=O)O)C(=O)N[C@H](Cc2ccc(O)cc2)C(=O)N1)C(N)=O` [technetium-99m labelled], the tissue uptake was 0.92 ± 0.35 %ID/g (C57 mouse, female, B16/F1 melanoma, bone; intravenous, 0.037 MBq, 2 h).
`O=C(O)C1CN(Cc2ccc(-c3noc(-c4ccc(OCC[18F])c(C(F)(F)F)c4)n3)cc2)C1` gave a tissue uptake of 0.341 ± 0.024 %ID/g (male Sprague-Dawley rat, lung; intravenous, 60 min).
For `CCCC[C@H](NC(=O)CNC(=O)CNC(=O)CN1CCN(CC(=O)O)CCN(CC(=O)O)CC1)C(=O)N[C@H]1CC(=O)NCCCC[C@@H](C(N)=O)NC(=O)[C@H](Cc2c[nH]c3ccccc23)NC(=O)[C@H](CCCNC(=N)N)NC(=O)[C@@H](Cc2ccccc2)NC(=O)[C@H](Cc2c[nH]cn2)NC1=O` [copper-64 labelled], the tissue uptake was 2.23 ± 0.21 %ID/g (C57 mouse B16/F1 melanoma, skin; 0.5 h).
`CCCC[C@H](NC(=O)CNC(=O)CNC(=O)CN1CCN(CC(=O)O)CCN(CC(=O)O)CCN(CC(=O)O)CC1)C(=O)N[C@H]1CC(=O)NCCCC[C@@H](C(N)=O)NC(=O)[C@H](Cc2c[nH]c3ccccc23)NC(=O)[C@H](CCCNC(=N)N)NC(=O)[C@@H](Cc2ccccc2)NC(=O)[C@H](Cc2c[nH]cn2)NC1=O` [gallium-67 labelled] gave a tissue uptake of 0.3 ± 0.18 %ID/g (female C57 mice, B16/F1 melanoma, muscle; intravenous, 0.037 MBq, 24 h).
`CC(C)[C@H](NC(=O)[C@@H]1CCCN1C(=O)[C@H](CCCNC(=N)N)NC(=O)[C@H](CS)NC(=O)[C@H](Cc1c[nH]c2ccccc12)NC(=O)[C@H](CCCNC(=N)N)NC(=O)[C@@H](Cc1ccccc1)NC(=O)[C@H](Cc1c[nH]cn1)NC(=O)[C@H](CCC(=O)O)NC(=O)[C@H](CS)NC(=O)[C@H](CS)NC(=O)CNC(=O)[C@@H]1CC(=O)N[C@@H](CCCNC(=N)N)C(=O)NCC(=O)N[C@@H](CC(=O)O)C(=O)N[C@H](Cc2ccc(O)cc2)C(=O)N1)C(N)=O` [technetium-99m labelled] has a tissue uptake of 7.99 ± 1.05 %ID/g (C57 mouse, female, B16/F1 melanoma, tumor; intravenous, 0.037 MBq, 4 h).
`O=C([O-])CN1CCN(CC(=O)[O-])CCN(CC(=O)NCCc2ccc3c(c2)C2C=CCC2C(c2cc4c(cc2Br)OCO4)N3)CCN(CC(=O)[O-])CC1.[111In+3]` (stereo not shown) gave a tissue uptake of 0.88 ± 0.06 %ID/g (mice with Hec50 tumour xenograft, pituitary; 0.5 h).
`CCN(CC)c1ccc2c(-c3ccccc3C(=O)OCCOCCOCC[18F])c3ccc(=[N+](CC)CC)cc-3oc2c1` has a tissue uptake of 0.25 ± 0.03 %ID/g (rat, liver; 60 min).
With `CCCC[C@H](NC(=O)CNC(=O)CNC(=O)CN1CCN(CC(=O)O)CCN(CC(=O)O)CCN(CC(=O)O)CC1)C(=O)N[C@H]1CC(=O)NCCCC[C@@H](C(N)=O)NC(=O)[C@H](Cc2c[nH]c3ccccc23)NC(=O)[C@H](CCCNC(=N)N)NC(=O)[C@@H](Cc2ccccc2)NC(=O)[C@H](Cc2c[nH]cn2)NC1=O` [copper-64 labelled] the tissue uptake was 2.23 ± 0.1 %ID/g (female C57 mouse, B16/F1 melanoma, heart; intravenous, 0.037 MBq, 24 h).

Repeated from above:
With `CCCC[C@H](NC(=O)CNC(=O)CNC(=O)CN1CCN(CC(=O)O)CCN(CC(=O)O)CCN(CC(=O)O)CC1)C(=O)N[C@H]1CC(=O)NCCCC[C@@H](C(N)=O)NC(=O)[C@H](Cc2c[nH]c3ccccc23)NC(=O)[C@H](CCCNC(=N)N)NC(=O)[C@@H](Cc2ccccc2)NC(=O)[C@H](Cc2c[nH]cn2)NC1=O` [copper-64 labelled] the tissue uptake was 2.23 ± 0.1 %ID/g (female C57 mouse, B16/F1 melanoma, heart; intravenous, 0.037 MBq, 24 h).
